Results gathered from unrelated publications.
A part holds a random share of what one study measured.

Study 1
Target: Phosphate system positive regulatory protein PHO4, full length, GST-tagged (PHO4, Saccharomyces cerevisiae, UniProt P07270, residues 1-312)
Method: competition protein-binding microarray
Molecule type: double-stranded DNA, one strand shown
Sample: in vitro
Tested at: 2 µM
Notes: whole 60-bp probe, lowest competitor level
Added: Cbf1 competitor, 0.05 µM
Reading: higher = stronger binding
Shared flanks, not repeated: … GTCTTGATTCGCTTGACGCTGCTG
Construct (chain): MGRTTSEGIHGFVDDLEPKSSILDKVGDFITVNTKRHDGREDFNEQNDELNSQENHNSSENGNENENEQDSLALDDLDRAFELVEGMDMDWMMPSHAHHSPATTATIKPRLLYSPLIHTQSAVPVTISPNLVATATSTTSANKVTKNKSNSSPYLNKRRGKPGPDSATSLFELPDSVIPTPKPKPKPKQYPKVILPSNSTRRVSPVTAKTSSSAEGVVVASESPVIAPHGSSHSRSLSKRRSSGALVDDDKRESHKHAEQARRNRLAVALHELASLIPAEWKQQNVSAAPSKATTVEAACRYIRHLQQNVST
| Sequence | fluorescence intensity |
| --- | --- |
| TTTTTGAGACGTACTGGCGTGCTAAATAGAGTGGTT | 6950 a.u. |
| AAAGCGGTAATTTGTGGTGTGGGTGCAGATATCTAT | 5530 a.u. |
| CCTTTGAAACGTACCCACGCATTTGCTAAAGAAAAA | 8530 a.u. |
| TAGTGATTGTTGGATCATATGACTGTGGGAAAATAA | 3760 a.u. |
| AAGAGTGGCTACAAACATGTGAGTTGACCCAAGAAT | 7300 a.u. |
| AAATTACTAAGTTGCGCGGTGGGTGACGCCGTATGA | 4020 a.u. |
| ATAGGTGCCATCACAATCGTGCCGAAATCTACCACT | 7790 a.u. |
| TGGTCAGACGCAGCGGGCGTGCTTTTGGACTGCTTG | 6620 a.u. |
| CCTTTAAAGGCCCACCACGTGGCTGCGCGGCCAGCC | 15900 a.u. |
| ACCTTTCAGTTTCCGCGCGTGACTCGGATTTGGCGG | 9650 a.u. |
| TGCGCAACAACTTGGGGGGTGGGTGTATGTCTAGAA | 5710 a.u. |
| GACGTACGCGCCTTCCACGTGTAACTCTTGTCTCTC | 15000 a.u. |
| CTTTCCCGATCTTGCCCGGTGGGTGTAGCACATTTG | 4670 a.u. |
| CCGATCTCTTTCCGACACGTGGAGGAGACATGAAAG | 19000 a.u. |
| CATACCCAACCTTGGTGTGTGGGTGAAGATATTTGT | 5950 a.u. |
| CTTTCCCGATCTTTTCACGTGTGTTTAGCACATTTG | 14100 a.u. |
| TGGAATGCATAAAAGAATGTGATGAAGTGTTTCCAA | 5130 a.u. |
| ATGAAGACGGAATCGCACGGGCCTATTACCTCGGGG | 8090 a.u. |
| CTTCAACAACAAGTGTCTGTGACGGCTTCAAGGGTC | 4270 a.u. |
| AAAGCGGTAATTTGGTTCGTGGGTGCAGATATCTAT | 7100 a.u. |
| CCTTCGACCTTCCATCACGTGCAAATAGCTTAATAT | 19200 a.u. |
| TGCGCAACAACTTTTCACGTGTGTTTATGTCTAGAA | 13300 a.u. |
| GCTATTGGCGCATTCAATGTGTCGCAAATGGGCCCA | 4170 a.u. |

Study 2
Target: Histone acetyltransferase KAT6A, winged helix 2, GST fusion (KAT6A, Homo sapiens, UniProt Q92794, residues 85-181)
Method: protein binding microarray
Molecule type: double-stranded DNA, one strand shown
Sample: in vitro
Tested at: not given
Notes: 8-mer, flanks averaged, mean of 2 arrays, mostly near background
Baseline: not given
Reading: higher = stronger binding
Residues (chain): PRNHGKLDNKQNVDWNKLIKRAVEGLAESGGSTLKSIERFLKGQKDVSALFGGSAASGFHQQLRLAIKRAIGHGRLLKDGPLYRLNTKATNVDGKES
| Sequence | E-score |
| --- | --- |
| CCCCTCCA | 0.0789 |
| CATCGCCC | 0.0572 |
| AGGCAGGA | -0.0457 |
| CCTGGCTA | -0.0714 |
| AACGATAG | -0.108 |
| CTCCAATC | -0.108 |
| AACTGCCT | 0.0208 |
| CTCGTACA | -0.0204 |
| AGCCGCCC | 0.147 |
| GCTTATTA | 0.00395 |
| CCCGCATA | 0.222 |
| AGTTTCAC | 0.0823 |
| ACTTCGCG | 0.0973 |
| CCGGTGGC | 0.117 |
| CAGCGAGC | 0.118 |
| ACGACGGC | 0.0323 |
| CATACTGA | -0.0617 |
| ACGAGCCT | -0.0933 |
| AATATGTA | 0.0144 |
| AGGACCAG | 0.0758 |
| AATCGACT | -0.255 |
| GACAGCCA | 0.117 |
| TCGCGAGA | 0.0713 |
| ACGCATTG | -0.0501 |
| AAACCTCC | -0.16 |

Study 3
Target: Sal-like protein 4, full length isoform B (SALL4, Homo sapiens, UniProt Q9UJQ4-2, residues 1-616)
Method: universal PBM
Molecule type: double-stranded DNA, one strand shown
Sample: in vitro
Tested at: not given
Notes: 8-mer, flanks averaged, mean of replicates
Reading: higher = stronger binding
Residues (chain): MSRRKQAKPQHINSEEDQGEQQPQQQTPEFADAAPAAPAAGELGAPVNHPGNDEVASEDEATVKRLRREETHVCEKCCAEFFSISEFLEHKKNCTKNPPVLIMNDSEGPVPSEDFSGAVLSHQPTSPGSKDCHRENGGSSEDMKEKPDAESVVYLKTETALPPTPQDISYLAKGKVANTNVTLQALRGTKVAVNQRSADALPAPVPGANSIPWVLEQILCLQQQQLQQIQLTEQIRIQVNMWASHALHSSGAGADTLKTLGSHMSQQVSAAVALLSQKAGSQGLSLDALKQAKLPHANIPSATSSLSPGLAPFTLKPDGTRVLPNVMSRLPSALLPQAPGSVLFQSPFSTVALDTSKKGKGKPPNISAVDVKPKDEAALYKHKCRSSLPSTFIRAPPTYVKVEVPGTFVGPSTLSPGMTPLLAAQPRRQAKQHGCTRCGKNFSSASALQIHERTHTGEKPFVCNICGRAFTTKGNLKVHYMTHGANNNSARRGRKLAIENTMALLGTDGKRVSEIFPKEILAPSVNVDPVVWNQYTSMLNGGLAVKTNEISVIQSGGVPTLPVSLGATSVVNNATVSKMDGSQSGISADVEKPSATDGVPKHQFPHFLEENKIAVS
| Sequence | E-score |
| --- | --- |
| GTGTTCAA | 0.0487 |
| CAAGATAC | 0.181 |
| GCGCGGGA | -0.224 |
| CTTACAGC | 0.0911 |
| ATAAATCC | 0.287 |
| ACGGGCAC | -0.276 |
| ATGCAAGA | 0.119 |
| AGTAAACT | 0.2 |
| CAAGTCAA | 0.0991 |
| AAATGTGT | 0.244 |
| AGTTTACG | 0.0689 |
| GGCTCCAA | -0.179 |
| GGCTGTAC | -0.278 |
| CTTGCGCC | -0.236 |
| ACTTATTG | 0.223 |
| ATAGACAA | 0.177 |

Study 4
Target: RNA binding protein fox-1 homolog 2, RRM domain, GST-SBP tag (RBFOX2, Homo sapiens, UniProt O43251-10, residues 100-194)
Method: RNA Bind-n-Seq
Molecule type: RNA
Sample: in vitro
Tested at: 365 nM
Notes: natural RNA segment, single round, ends assumed
Baseline: no-protein control
Reading: higher = stronger binding
Shared flanks, not repeated: GGGAGUUCUACAGUCCGACGAUC … UGGAAUUCUCGGGUGCCAA
Construct (chain): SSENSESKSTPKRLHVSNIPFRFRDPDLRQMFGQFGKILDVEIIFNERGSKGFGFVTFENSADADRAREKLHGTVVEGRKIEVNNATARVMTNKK
| Sequence | RBNS enrichment (R) |
| --- | --- |
| UUCAUCUAUUAAACAGGGUUGGUUUUUCUGGUUGCUAGGGAGACUUAUAGUAAUACAACUUACUAUUCUAGAUUCUUCUUAUCGCUGUGUUUUAUUUGCCAUGUAUCAUC | 0.283 |
| UGUGCGUGUGUGUGCGCGUGUGUGUUAUUGUUUAAAUUGUAUUCACAGUGUUGUUUGCCUUGCUCACUUGUAACCCCCUCCUCGGAUCUAGGAGAAUGGGAGGAGGGUCU | 3.36 |
| GAAACAAGUCUAGUCUUCUGGUUUUCUAGCCCCUCUGGAUUCCCUUUUGACUCUUCCGUGCAUCCCAGAUAAUGGAGAAUGUAUCAGCCAGCCUUCCCCACCAAGUCUAA | 0.542 |
| CUUCGGUGUCCUCCACACUGACACAGAUCCCCUCCUCAUGGUCGGCAGUUGUGCCCGUUUUUUGACAUCUGUGUCCCUUCAUGUUGCAUCAUCUGUACUAUUCUGUGUUA | 0.611 |
| UCUAGUUGUGAAAAUCACUCAAGAUUGAGAGAACAGGCUGGCAUAGUGGGAUAAAGGGCCCAAAAGCAAGGAGACUGUCGUAUAGAAAGAAAGUGGACAGGAUGCUACUG | 1.11 |
| AAAUCCCAUUCCAGUGUUACUUUCUGUGAAUGCAGUACCAUAUUCUCAUUUUCAAUGACAUUUCAACCACAGGCAGAAAAGACUGUUUACUCCUUGACCCAAAGAUUAAA | 0.272 |
| GUAAGAUAUUAUUUCUGAAACAGUUUUAGUUAUAUCCACUAUGAUUAUAAACUGUGUCUCGACCUGUGUUAUUUACAUUAGCUGCUUAAAGGAGCAUUGAGUUCUUUGGU | 0.44 |
| CACGUCCAAAACAAAAGAUUAUUCCAGAAGAUACCUCAUCCUAUGCCUGAAAGGCUCCACAGCAUGGCGUCCGUCUCCCAGGGUUCUGAUCCGUCUCCUCACGGUGCAAU | 0.409 |
| CCACCUCCUUGCUUUUUCUUUCACUGAUACCACUGAAUGGAACUGGUGCUGUGACUCCUGCUGCUGGGGAUUUAUGUCCCGAGACCUUAGCCUGGCUGAGUGGAGCCUGA | 0.82 |
| CUCCUUUUCUAAAGGCUGAUCCAACUACACUUGUGGGCUAUUUUUCCAAGCUUUGUGUGAAACUUGAUGACAUUGGGCCAGCAAAAUGCAAAGAAGACUAUAGUUUCAGG | 0.315 |
| AAUGUAAACUGCUCCCCCUCUCCCUUGCAGCCCUACGUGUUGAGGUUCUCUUGCAAUCUGUGUUAAGUACUGAAUGAAUGCCUUGAUUCAAUAAAAUUAAUUUUUUGACU | 0.907 |
| GCAAAUGCUCCCUCCUUAAGGUUAUAGGGCUCCCUGAGUUUGGGAGUGUGGAAGUACUACUUAACUGUCUGUCCUGCUUGGCUGUCGUUAUCGUUUUCUGGUGAUGUUGU | 0.702 |

Repeated from above (study 2):
| Sequence | E-score |
| --- | --- |
| CCGGTGGC | 0.117 |
| CCTGGCTA | -0.0714 |
| GACAGCCA | 0.117 |
| CCCGCATA | 0.222 |
| AACGATAG | -0.108 |
| CATCGCCC | 0.0572 |
| CATACTGA | -0.0617 |
| TCGCGAGA | 0.0713 |
| AACTGCCT | 0.0208 |
| AGGCAGGA | -0.0457 |
| AATCGACT | -0.255 |
| CAGCGAGC | 0.118 |
